Experimental data collected from several papers.
± marks the error that the study gave.
CNR1: Cannabinoid receptor 1 (CNR1, Homo sapiens, UniProt P21554)
Chain of UniProt P21554 (whole entry, unmodified, looked up): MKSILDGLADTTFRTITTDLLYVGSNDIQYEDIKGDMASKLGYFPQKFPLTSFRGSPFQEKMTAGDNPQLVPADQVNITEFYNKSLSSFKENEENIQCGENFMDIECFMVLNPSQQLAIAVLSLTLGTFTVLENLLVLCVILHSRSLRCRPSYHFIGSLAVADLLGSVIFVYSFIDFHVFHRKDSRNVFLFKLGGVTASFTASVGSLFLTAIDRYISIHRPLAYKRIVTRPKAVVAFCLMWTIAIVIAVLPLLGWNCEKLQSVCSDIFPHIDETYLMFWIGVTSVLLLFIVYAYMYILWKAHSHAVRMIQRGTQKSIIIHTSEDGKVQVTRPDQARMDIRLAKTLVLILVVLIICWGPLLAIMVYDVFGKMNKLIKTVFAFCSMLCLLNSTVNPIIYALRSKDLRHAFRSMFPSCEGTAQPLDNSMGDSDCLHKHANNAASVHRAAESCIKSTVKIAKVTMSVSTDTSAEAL
HCK Q523E/Q524E/Q525I: Tyrosine-protein kinase HCK (HCK, Homo sapiens, UniProt P08631, Q523E/Q524E/Q525I)
Chain of UniProt P08631 (whole entry, unmodified, looked up): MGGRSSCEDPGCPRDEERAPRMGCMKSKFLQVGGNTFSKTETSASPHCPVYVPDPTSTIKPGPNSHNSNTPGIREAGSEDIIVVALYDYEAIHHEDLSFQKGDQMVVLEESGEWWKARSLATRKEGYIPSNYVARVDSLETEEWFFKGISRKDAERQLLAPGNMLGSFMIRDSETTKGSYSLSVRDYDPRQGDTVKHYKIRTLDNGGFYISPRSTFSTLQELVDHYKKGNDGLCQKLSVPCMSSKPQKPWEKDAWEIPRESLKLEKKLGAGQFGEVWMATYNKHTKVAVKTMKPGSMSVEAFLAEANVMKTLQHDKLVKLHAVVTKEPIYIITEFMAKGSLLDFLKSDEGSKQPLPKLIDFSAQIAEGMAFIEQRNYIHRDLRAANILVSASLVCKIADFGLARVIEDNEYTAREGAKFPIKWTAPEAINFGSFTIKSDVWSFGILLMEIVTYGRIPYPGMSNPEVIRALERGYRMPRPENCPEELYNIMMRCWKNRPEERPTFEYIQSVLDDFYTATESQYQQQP
Chain of UniProt P18089 (whole entry, looked up): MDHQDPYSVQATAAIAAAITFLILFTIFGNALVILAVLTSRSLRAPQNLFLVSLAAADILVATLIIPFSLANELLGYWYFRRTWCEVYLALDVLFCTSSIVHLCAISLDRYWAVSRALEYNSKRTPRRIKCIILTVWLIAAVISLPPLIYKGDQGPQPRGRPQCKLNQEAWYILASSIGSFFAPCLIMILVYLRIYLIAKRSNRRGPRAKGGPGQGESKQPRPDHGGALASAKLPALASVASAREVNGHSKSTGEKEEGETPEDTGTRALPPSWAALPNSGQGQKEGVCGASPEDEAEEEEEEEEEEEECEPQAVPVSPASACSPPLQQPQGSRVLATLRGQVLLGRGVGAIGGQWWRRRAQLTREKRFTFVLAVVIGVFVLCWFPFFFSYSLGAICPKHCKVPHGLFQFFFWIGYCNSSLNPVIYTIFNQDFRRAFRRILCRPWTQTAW
Chain of UniProt Q01959 (whole entry, unmodified, looked up): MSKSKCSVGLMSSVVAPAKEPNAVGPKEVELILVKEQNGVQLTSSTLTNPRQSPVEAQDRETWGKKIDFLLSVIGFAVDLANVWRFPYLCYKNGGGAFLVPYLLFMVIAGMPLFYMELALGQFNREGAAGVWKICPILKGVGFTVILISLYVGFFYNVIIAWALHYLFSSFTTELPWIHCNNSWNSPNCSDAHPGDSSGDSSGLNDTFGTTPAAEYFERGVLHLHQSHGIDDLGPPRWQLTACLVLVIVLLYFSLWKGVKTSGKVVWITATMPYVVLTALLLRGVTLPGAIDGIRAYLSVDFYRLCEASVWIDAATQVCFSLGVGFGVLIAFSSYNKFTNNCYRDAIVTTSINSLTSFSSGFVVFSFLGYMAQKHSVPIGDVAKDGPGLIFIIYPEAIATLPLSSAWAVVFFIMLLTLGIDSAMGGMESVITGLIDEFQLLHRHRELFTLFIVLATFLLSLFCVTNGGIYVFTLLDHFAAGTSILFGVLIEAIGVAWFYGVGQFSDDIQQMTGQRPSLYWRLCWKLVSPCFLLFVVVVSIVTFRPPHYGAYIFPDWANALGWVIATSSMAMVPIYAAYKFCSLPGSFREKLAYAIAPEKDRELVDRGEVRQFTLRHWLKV
Chain of UniProt P30872 (whole entry, looked up): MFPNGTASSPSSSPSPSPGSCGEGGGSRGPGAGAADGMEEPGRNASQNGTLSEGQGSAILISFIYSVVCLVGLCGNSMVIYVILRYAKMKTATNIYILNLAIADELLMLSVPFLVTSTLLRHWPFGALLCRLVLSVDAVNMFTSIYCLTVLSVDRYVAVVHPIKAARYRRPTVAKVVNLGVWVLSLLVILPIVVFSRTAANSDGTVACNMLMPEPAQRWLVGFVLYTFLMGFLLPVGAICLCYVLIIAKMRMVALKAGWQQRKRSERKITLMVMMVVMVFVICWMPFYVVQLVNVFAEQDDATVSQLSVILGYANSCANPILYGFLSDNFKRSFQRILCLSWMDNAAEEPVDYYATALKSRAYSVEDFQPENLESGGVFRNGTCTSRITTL
Chain of UniProt P13128 (whole entry, looked up): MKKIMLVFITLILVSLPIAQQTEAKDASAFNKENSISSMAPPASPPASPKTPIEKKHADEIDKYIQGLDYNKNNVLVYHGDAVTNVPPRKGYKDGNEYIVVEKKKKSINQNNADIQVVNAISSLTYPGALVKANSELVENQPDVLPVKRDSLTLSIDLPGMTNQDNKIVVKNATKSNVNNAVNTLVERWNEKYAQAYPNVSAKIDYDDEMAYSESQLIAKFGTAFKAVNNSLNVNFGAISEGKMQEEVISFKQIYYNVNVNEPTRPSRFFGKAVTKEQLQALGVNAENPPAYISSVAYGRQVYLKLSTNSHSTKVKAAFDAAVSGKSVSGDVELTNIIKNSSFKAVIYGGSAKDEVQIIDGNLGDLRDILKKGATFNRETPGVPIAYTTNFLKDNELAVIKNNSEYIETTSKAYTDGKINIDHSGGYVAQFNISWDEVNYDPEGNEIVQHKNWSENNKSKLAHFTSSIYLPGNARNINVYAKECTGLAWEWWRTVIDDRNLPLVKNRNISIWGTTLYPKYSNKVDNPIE
Chain of UniProt P41143 (whole entry, unmodified, looked up): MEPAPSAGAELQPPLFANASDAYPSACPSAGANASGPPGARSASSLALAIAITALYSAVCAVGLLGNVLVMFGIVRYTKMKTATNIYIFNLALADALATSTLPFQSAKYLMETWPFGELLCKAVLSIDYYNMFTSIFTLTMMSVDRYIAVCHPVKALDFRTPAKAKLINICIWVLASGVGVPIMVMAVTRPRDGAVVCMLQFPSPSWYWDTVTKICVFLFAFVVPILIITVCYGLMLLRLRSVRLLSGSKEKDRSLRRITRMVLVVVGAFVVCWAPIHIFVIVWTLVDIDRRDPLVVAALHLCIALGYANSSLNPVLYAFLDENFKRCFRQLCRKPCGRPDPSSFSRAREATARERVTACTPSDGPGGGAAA
Chain of UniProt Q92851 (whole entry, looked up): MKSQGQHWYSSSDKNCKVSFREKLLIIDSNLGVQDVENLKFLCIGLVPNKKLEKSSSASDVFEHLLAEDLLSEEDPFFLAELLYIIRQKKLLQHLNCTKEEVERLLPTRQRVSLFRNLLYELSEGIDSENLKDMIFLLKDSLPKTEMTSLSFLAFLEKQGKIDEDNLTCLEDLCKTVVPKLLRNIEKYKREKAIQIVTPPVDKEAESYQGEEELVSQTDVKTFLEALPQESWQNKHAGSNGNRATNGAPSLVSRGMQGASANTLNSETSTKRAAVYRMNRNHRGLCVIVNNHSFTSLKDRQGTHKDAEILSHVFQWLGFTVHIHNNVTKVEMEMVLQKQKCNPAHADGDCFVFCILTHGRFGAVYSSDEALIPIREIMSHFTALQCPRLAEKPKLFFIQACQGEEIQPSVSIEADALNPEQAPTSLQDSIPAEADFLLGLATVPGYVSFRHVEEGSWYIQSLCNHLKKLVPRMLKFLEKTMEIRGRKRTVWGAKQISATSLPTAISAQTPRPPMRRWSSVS
Chain of UniProt Q8VJU4 (whole entry, looked up): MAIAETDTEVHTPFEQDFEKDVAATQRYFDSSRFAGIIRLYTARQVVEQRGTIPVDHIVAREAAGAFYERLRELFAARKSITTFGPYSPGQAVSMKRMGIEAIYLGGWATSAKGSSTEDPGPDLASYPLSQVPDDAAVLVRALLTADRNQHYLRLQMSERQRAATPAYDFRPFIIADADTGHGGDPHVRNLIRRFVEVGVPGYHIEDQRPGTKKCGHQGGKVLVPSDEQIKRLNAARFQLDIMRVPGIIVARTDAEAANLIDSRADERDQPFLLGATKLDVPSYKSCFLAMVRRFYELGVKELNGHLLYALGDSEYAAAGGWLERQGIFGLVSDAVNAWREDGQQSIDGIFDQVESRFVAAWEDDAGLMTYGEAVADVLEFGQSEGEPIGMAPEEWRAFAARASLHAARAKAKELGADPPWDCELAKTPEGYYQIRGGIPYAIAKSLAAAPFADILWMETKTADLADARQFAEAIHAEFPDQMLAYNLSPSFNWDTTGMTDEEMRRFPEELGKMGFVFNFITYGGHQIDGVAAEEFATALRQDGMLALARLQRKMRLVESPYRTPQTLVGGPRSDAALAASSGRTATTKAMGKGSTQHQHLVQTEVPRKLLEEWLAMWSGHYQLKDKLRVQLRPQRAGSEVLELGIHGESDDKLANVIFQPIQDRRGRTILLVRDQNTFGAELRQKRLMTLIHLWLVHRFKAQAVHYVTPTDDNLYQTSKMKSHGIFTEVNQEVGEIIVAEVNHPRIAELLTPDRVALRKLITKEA

| SMILES | target | test | test system | setting | measurement | result |
| --- | --- | --- | --- | --- | --- | --- |
| O=[N+]([O-])CC(c1ccco1)c1c(-c2ccccc2)[nH]c2ccccc12 (centres unmarked) | Cannabinoid receptor 1, with Gi2 (CNR1, Homo sapiens, UniProt P21554) | Gi2 dissociation, agonist, BRET | HEK293 |  | EC50 | 280 ± 50 nM |
| C=CCNC(=O)N1Cc2ccc(NC(=O)NC3CC3c3ccccc3)cc2C1 (centres unmarked) | relA, residues 53-446 (Mycobacterium tuberculosis, UniProt P9WHG9) | enzyme activity, inhibitor, fluorescence polarization |  |  | IC50 | 12600 nM |
| CCN(CC)C(=O)c1ccc(C(c2cccc(O)c2)N2CC(C)N(Cc3ccccc3)CC2C)cc1 (centres unmarked) | OPRD1 (Homo sapiens, UniProt P41143, V217A) |  |  |  | Ki | 0.76 ± 0.24 nM |
| CC(=O)N[C@H]1[C@H](O[C@H]2[C@H](O[C@H](C)C(=O)N[C@@H](C)C(=O)N[C@H](CCC(=O)N[C@@H](CCC[C@@H](N)C(=O)O)C(=O)N[C@H](C)C(=O)O)C(N)=O)[C@@H](NC(C)=O)[C@@H]3OC[C@H]2O3)O[C@H](CO)[C@@H](O)[C@@H]1O | Serine/threonine-protein kinase PknB, extracellular domain (pknB, Mycobacterium tuberculosis, UniProt P9WI81) | binding, biolayer interferometry |  | extracellular domain | Kd | 12000 nM |
| COc1ccccc1C(C[N+](=O)[O-])c1c(-c2ccccc2)[nH]c2ccccc12 (centres unmarked) | CNR1 (Homo sapiens, UniProt P21554, L165A) | G protein activation, agonist, BRET |  |  | EC50 | 280 nM |
| CC(C)(C)n1nc(-c2ccc(Cl)cc2)c2c(N)ncnc21 | SRC (Gallus gallus, UniProt P00523, Y527F) | enzyme activity, inhibitor |  |  | Ki | 43 nM |
| CCCCCn1cc(C(=O)c2cccc3c2CC(C)(C)C3)c2ccccc21 | CNR1 (Homo sapiens, UniProt P21554, F174A) | G protein activation, agonist, BRET |  |  | EC50 | 631 nM |
| C=CC(=O)N1CCC[C@@H](n2nc(-c3ccc(Cl)cc3)c3c(N)ncnc32)C1 | HCK (Homo sapiens, UniProt P08631, Y522F) |  |  |  | Ki | 648 nM |
| CC(=O)SCCNC(=O)CCNC(=O)[C@H](O)C(C)(C)COP(=O)(O)OP(=O)(O)OC[C@H]1O[C@@H](n2cnc3c(N)ncnc32)[C@H](O)[C@@H]1OP(=O)(O)O | icl2 (Mycobacterium tuberculosis, UniProt Q8VJU4) |  |  |  | Kd | 39000 ± 3000 nM |
| CCC[C@H](C(=O)c1ccccc1)N1CCCC1 | SLC6A3 (Homo sapiens, UniProt Q01959) | dopamine uptake, inhibitor | HEK293 transiently transfected | DAT F76Y mutant, with: [3H]dopamine | Ki | 373 nM |
| Cc1ccc2c(C(C[N+](=O)[O-])c3cccs3)c(-c3ccccc3)[nH]c2c1 (centres unmarked) | CNR1 | Gαi1-γ2 dissociation, agonist, BRET |  |  | EC50 | 130 ± 10 nM |
| CCCCCn1cc(C(=O)c2cccc3ccccc23)c2ccccc21 | CNR1 | cAMP, agonist |  |  | EC50 | 1.7 nM |
| COc1cc(C2C(NC(=O)c3ccc(NC(=O)OC(C)(C)C)cc3)(C(=O)O)C(c3ccc(OC(=O)c4cccs4)c(OC)c3)C2(NC(=O)c2ccc(NC(=O)OC(C)(C)C)cc2)C(=O)O)ccc1OC(=O)c1cccs1 (centres unmarked) | GLP1R (Homo sapiens, UniProt P43220) | binding |  |  | Ki | 1020 nM |
| CC(C)n1nc(-c2ccc3cc(OCc4cccc(Cl)c4)ccc3c2)c2c(N)ncnc21 | HCK Q523E/Q524E/Q525I | enzyme activity, inhibitor |  |  | Ki | < 10 nM |
| CSCC[C@H](NC(=O)[C@@H]1CSSC[C@H](NC(=O)[C@H](CCCCN)NC(=O)[C@H](Cc2ccc(O)cc2)NC(=O)CNC(=O)[C@@H](N)CC(C(=O)O)C(=O)O)C(=O)N[C@@H](C(C)C)C(=O)N[C@H](Cc2c[nH]c3ccccc23)C(=O)N[C@@H](CCCCN)C(=O)N[C@@H]([C@@H](C)O)C(=O)N1)C(=O)N1C[C@H](O)C[C@H]1C(=O)N[C@@H](C)C(=O)O | SSTR1 (Homo sapiens, UniProt P30872) | β-arrestin recruitment, agonist |  |  | EC50 | 2880 nM |
| CCCCCn1cc(C(=O)c2ccc3ccccc3c2)c2ccccc21 | CNR1 (Homo sapiens, UniProt P21554, F177A) | G protein activation, agonist, BRET |  |  | EC50 | 55 nM |
| Nc1ncnc2c1c(-c1ccc(Oc3ccccc3)cc1)nn2C1CCCC1 | HCK Q523E/Q524E/Q525I | enzyme activity, inhibitor |  |  | Ki | 17 nM |
| CCN(CC)C(=O)[C@@H]1C=C2c3cccc4c3c(cn4C(=O)c3ccco3)C[C@H]2N(C)C1 | ADRA2B (Homo sapiens, UniProt P18089) | ligand displacement, radioligand |  |  | Ki | > 10000 nM |
| CC(C)CC(C(=O)N1CC2(CC1C#N)C(=O)Nc1ccccc12)N(C)C(=O)c1cc2c(F)cc(F)c(F)c2[nH]1 (centres unmarked) | Caspase-10 (CASP10, Homo sapiens, UniProt Q92851) | enzyme activity, inhibitor |  |  | IC50 | > 100000 nM |
| CC(=O)NC1C(OC2C(CO)OC(OC3C(CO)OC(O)C(O)C3O)C(O)C2OC2(C(=O)O)CC(O)C(NC(C)=O)C(C(O)C(CO)OC3(C(=O)O)CC(O)C(NC(C)=O)C(C(O)C(CO)OC4(C(=O)O)CC(O)C(NC(C)=O)C(C(O)C(O)CO)O4)O3)O2)OC(CO)C(O)C1O (centres unmarked) | hly, domain 4 (Listeria monocytogenes, UniProt P13128) | binding |  |  | Kd | 10.4 nM |
